Results collected from several papers.
A part holds a random share of what one study measured.

Block 1
Target: Prothrombin, mature alpha-thrombin (F2, Homo sapiens, UniProt P00734)
Technique: aptamer microarray, sandwich
Molecule type: DNA with 2'F-ANA
Medium: in vitro
Concentration: 200 nM
Notes: whole 15-mer aptamer, many near background
Together with: Cy3 exosite-II aptamer, 400 nM
Reading: higher = stronger binding
Oligonucleotide: GGTTGGTGTGGTTGG
Modification | mean fluorescence intensity [a.u.]
2'F-ANA at 1 2 3 6 7 8 11 13 15 | 185
2'F-ANA at 2 3 4 6 8 11 13 | 432
2'F-ANA at 1 5 6 8 10 15 | 70.8
2'F-ANA at 1 2 6 8 9 10 12 13 14 15 | 87
2'F-ANA at 2 3 4 6 7 8 13 15 | 423
2'F-ANA at 1 2 4 6 11 13 15 | 69.2
2'F-ANA at 1 2 4 7 10 14 15 | 76.3
2'F-ANA at 3 6 7 9 11 12 14 15 | 477
2'F-ANA at 1 2 3 5 6 8 10 11 12 13 14 | 50.1
2'F-ANA at 1 6 8 9 10 11 12 13 14 | 110
2'F-ANA at 3 7 8 9 10 11 12 13 14 15 | 390
2'F-ANA at 5 6 7 8 9 11 13 14 15 | 46
2'F-ANA at 2 3 5 6 8 10 12 14 | 85.1
2'F-ANA at 2 5 8 10 12 13 14 | 63
2'F-ANA at 9 14 | 210
2'F-ANA at 3 5 6 7 8 13 15 | 121
2'F-ANA at 3 5 6 7 | 111
2'F-ANA at 1 2 3 4 5 13 | 58.8
2'F-ANA at 2 3 4 5 6 7 8 9 12 13 14 15 | 56.9
2'F-ANA at 1 2 3 4 8 10 11 13 15 | 84.2
2'F-ANA at 3 5 6 8 11 12 15 | 206
2'F-ANA at 3 4 6 7 9 10 15 | 256
2'F-ANA at 2 4 5 6 9 10 13 | 48.3
2'F-ANA at 3 4 6 7 | 708

Block 2
Target: RING finger protein unkempt homolog, zinc fingers 1-6, GST-SBP tag (UNK, Homo sapiens, UniProt Q9C0B0, residues 30-357)
Chain of UniProt Q9C0B0 (30-357, looked up): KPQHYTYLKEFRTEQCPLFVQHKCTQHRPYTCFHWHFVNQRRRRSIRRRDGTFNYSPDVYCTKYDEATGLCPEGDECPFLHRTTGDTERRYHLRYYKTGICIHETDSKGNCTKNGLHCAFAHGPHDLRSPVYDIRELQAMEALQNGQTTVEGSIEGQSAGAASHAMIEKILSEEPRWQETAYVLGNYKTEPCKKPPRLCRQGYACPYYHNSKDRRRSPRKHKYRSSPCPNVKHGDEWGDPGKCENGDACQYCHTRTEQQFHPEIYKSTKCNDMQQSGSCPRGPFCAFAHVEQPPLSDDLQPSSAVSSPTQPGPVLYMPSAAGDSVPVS
Technique: RNA Bind-n-Seq
Molecule type: RNA
Medium: in vitro
Concentration: not given
Notes: RNA with constant flanks, human and mouse sites, ends assumed
Reference: input RNA pool
Reading: higher = stronger binding
Constant ends, left off below: GGGAGUUCUACAGUCCGACGAUC … CAACAGAGGAUUGAGCAUCA
Oligonucleotide | bound/input enrichment [ratio]
AGCUCACAGUGCCCCUAGUCUGGGUGCCCGCUGUCCCCGACAAAUGUAACCACCUCCCUGCCUAGAAUACACACACGUCCUCCGGUGCAUGCACAACCACCCAGCAUCUUUCUUUGUGAU | 0.632
GGCUCCCCUUCCAAUGAGCUGGUGUCUGGAGGAUCUGACAAUCGGGUGAUUCAUUGGGAACUAGAGAAUAAUCAGGUUUUAAAAUCAGUCCGUCUCCAAGGCCAUGAAGGACCUGUUUGU | 0.632
UUCUUCCCGAAGAGAACCACAGCCCUGCUUCUCCCUGGUAUCAUUAAAGCGGCUGCUCGCAUACUGUACGAAAGCCACGUGGAGGUGUCCCUGAUGCCUCCCUGCUUCCGAAGUGACUGU | 0.115
GAACAUGGCAUCCAGCCUGAUGGCCAGAUGCCAAGUGACAAGACCAUUGGGGGAGGAGAUGACUCCUUCAACACCUUCUUCAGUGAGACAGGAGCUGGCAAGCAUGUGCCCCGGGCAGUG | 0.124
GGAGGAAUGCCUUUUGCAAUAAUGUAUCCCUUCCCUGAUGGAGGGUGGGUGGGUGGACCCAGGCUCCCUUUGCACACGGAGCAGUACCUUCUAAGCCAUAUCGACUGUUGAGCAGAGGGU | 0.231
GCGCCCCCCGGGCGCCCCGAUGUUUUUCCUCCUCCCCUCAGCUCUGAGCAUAAUGGGCAGGUAGCUGAGGACGCAGUGUCCCGGCCAAAGGAUGACGGCGUACCAGAGGUCCGAGCUGCU | 0.122
GAUCCAGAGGAAGAGGAGGUUGAGAAGGAAGGGAAUGCCACUGUGAGUUUCUCACAGGCCCUGGUAGAGUUCACCAGCAAUGGGAACCUCUUUUCCAGCAUGUCCUGCAGCUCUGACUCU | 0.116
CGUCUCCAUGUAACGAUUCUUGACGUGUUUCUCUGAGAGUUGGCUUAUUUUGAUUAUCAAUUCUUUCUCACUGUCCAUUCCUAUUGAUUUAUCCUGCCAUAUCUCUUUGGGUUUGAUGAG | 0.277

Block 3
Target: Histone acetyltransferase KAT6A, both winged helices, GST fusion (KAT6A, Homo sapiens, UniProt Q92794, residues 1-181)
Technique: protein binding microarray
Molecule type: double-stranded DNA, one strand shown
Medium: in vitro
Concentration: not given
Notes: 8-mer, flanks averaged, mean of 2 arrays, mostly near background
Reference: not given
Reading: higher = stronger binding
Target sequence (chain): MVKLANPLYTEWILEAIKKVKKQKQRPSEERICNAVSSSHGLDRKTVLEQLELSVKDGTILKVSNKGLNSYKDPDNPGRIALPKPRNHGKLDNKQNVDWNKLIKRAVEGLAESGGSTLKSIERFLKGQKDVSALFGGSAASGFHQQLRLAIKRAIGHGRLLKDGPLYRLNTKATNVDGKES
Oligonucleotide | E-score
GATCGTGA | -0.161
CACGCGGA | 0.256
ACATTATC | 0.00946
GCGCTCAA | 0.252
CAAAGTGA | -0.0546
GTTTTCCA | -0.0183
ACTTGGGC | -0.127
GCGTATCA | 0.0867
GCACATTA | 0.0293
CGACACAA | -0.107
AATACGAA | -0.051
ACCATGGG | 0.0291
CCGGGTAG | 0.0951
GTATTCAA | -0.00247
ATACATAC | -0.0678
AGGCAACC | -0.125
GAAGTGCA | -0.0155
CGGCAAGC | 0.257
ACCCAGTA | -0.179
AAGGTATT | 0.05
AGTTTACA | 0.0239
GCCGAAAC | 0.134
AGATGCCC | -0.105
AAGCATGA | 0.00975
CAGGCGGG | 0.172

Block 4
Target: Sal-like protein 4, full length isoform B (SALL4, Homo sapiens, UniProt Q9UJQ4-2, residues 1-616)
Technique: universal PBM
Molecule type: double-stranded DNA, one strand shown
Medium: in vitro
Concentration: not given
Notes: 8-mer, flanks averaged, mean of replicates
Reading: higher = stronger binding
Oligonucleotide | E-score
GCGTTCCA | -0.146
CCTTCCAG | -0.218
TATTTGAA | 0.276
CTCTCAGC | -0.262
ATTCACGA | 0.191
AACTCCTA | 0.0193
ATAAGAGC | 0.172
GATACAGA | 0.0749
AATTGTGG | 0.142
ACCCGCCC | -0.188
CGGAACAC | -0.0649
AGTATCAG | -0.01
GCGTATAA | 0.175
ATCAAATG | 0.135
ACCGAATC | 0.00252
AGTCGCCG | -0.336
AACGGCCC | -0.336
CACAGGGG | -0.199
CCAACAAG | -0.171
ACACATCC | -0.0444
AATCGCTG | -0.128
GGCGACAC | -0.252
CTAGGACA | 0.0857
GGAAGCGA | -0.109
AGATTCGA | -0.108

Some of these lines once more (block 1):
Modification | mean fluorescence intensity [a.u.]
2'F-ANA at 1 5 6 8 10 15 | 70.8
2'F-ANA at 1 2 4 7 10 14 15 | 76.3
2'F-ANA at 3 4 6 7 | 708
2'F-ANA at 1 2 3 5 6 8 10 11 12 13 14 | 50.1
2'F-ANA at 3 6 7 9 11 12 14 15 | 477
2'F-ANA at 2 3 5 6 8 10 12 14 | 85.1
2'F-ANA at 3 5 6 7 8 13 15 | 121
2'F-ANA at 9 14 | 210
2'F-ANA at 3 5 6 8 11 12 15 | 206
2'F-ANA at 1 2 4 6 11 13 15 | 69.2
